Measured values of several laboratories.
Compare with care: the assays were run in different laboratories.
Organism: Pseudomonas aeruginosa

SMILES	test	system	setting	scale	MIC
CC(C)C[C@H](NC(=O)[C@@H](NC(=O)[C@H](CCCNC(=N)N)NC(=O)[C@H](CCC(N)=O)NC(=O)[C@H](Cc1ccccc1)NC(=O)[C@H](Cc1ccc(O)cc1)NC(=O)[C@H](CC(N)=O)NC(=O)[C@H](Cc1c[nH]c2ccccc12)NC(=O)[C@@H](NC(=O)[C@H](CCCNC(=N)N)NC(=O)[C@H](CCCCN)NC(=O)[C@@H](N)Cc1ccccc1)C(C)C)C(C)C)C(=O)N[C@H](C(=O)N[C@@H](CCCCN)C(=O)N[C@@H](CCCCN)C(N)=O)C(C)C	broth dilution	ATCC 27853			100 µM
CC[C@H](C)[C@H](NC(=O)[C@H](CCCCN)NC(=O)[C@H](CCCNC(=N)N)NC(=O)[C@H](CCCNC(=N)N)NC(=O)[C@H](CC(C)C)NC(=O)[C@H](CCCCN)NC(=O)[C@H](CCCCN)NC(=O)[C@H](Cc1ccccc1)NC(=O)[C@H](CC(C)C)NC(=O)CNC(=O)[C@H](CCCNC(=N)N)NC(=O)[C@@H](N)CCCNC(=N)N)C(=O)N[C@@H](CCCCN)C(=O)N[C@@H](CCCCN)C(=O)NCC(=O)N[C@@H](Cc1ccccc1)C(=O)N[C@@H](CCCCN)C(=O)N[C@@H](CCCCN)C(=O)N[C@H](C(=O)N[C@@H](Cc1ccccc1)C(=O)N[C@@H](CCCCN)C(=O)N[C@@H](CCCNC(=N)N)C(=O)N[C@@H](CC(C)C)C(=O)N1CCC[C@H]1C(=O)N1CCC[C@H]1C(=O)N[C@H](C(=O)NCC(=O)N[C@H](C(=O)NCC(=O)N[C@H](C(=O)N[C@@H](CO)C(=O)O)C(C)C)C(C)C)C(C)C)[C@@H](C)CC		CMCC 10104	highest concentration 50 µM		10.3 µM
CC[C@H](C)[C@H](NC(=O)[C@H](CC(C)C)NC(=O)[C@H](CCCNC(=N)N)NC(=O)[C@@H](N)CCCNC(=N)N)C(=O)N[C@@H](CCCNC(=N)N)C(=O)N[C@H](C(=O)N[C@@H](CC(=O)O)C(=O)N[C@H](C(=O)NCC(=O)N1CCC[C@H]1C(=O)N[C@H](C(=O)N[C@H](C(=O)N[C@@H](Cc1ccc(O)cc1)C(=O)N[C@@H](CC(=O)O)C(=O)N[C@@H](Cc1ccc(O)cc1)C(=O)N[C@@H](Cc1ccccc1)C(=O)N[C@@H](CCCCN)C(=O)N[C@@H](CC(=O)O)C(=O)N[C@@H](CCC(N)=O)C(=O)N[C@@H](CC(C)C)C(=O)N[C@@H](CC(C)C)C(=O)N[C@@H](CCCCN)C(=O)N[C@@H](CCCCN)C(N)=O)[C@@H](C)CC)[C@@H](C)CC)[C@@H](C)O)[C@@H](C)O		KCTC 1637, Mueller-Hinton broth	24 h		> 128 µM
CC[C@H](C)[C@H](NC(=O)[C@H](CC(C)C)NC(=O)[C@H](CCCCN)NC(=O)[C@H](CCCCN)NC(=O)[C@H](CCCCN)NC(=O)[C@H](CCCCN)NC(=O)[C@H](CC(C)C)NC(=O)[C@@H](NC(=O)[C@@H](NC(=O)[C@@H](NC(=O)[C@H](CC(C)C)NC(=O)[C@H](CCCNC(=N)N)NC(=O)[C@H](CO)NC(=O)[C@@H](N)CO)C(C)C)[C@@H](C)CC)[C@@H](C)CC)C(=O)N[C@@H](CO)C(=O)N[C@@H](CCCCN)C(=O)N[C@@H](CCCCN)C(=O)N[C@@H](CCCCN)C(=O)N[C@@H](CCCCN)C(N)=O	broth microdilution	ATCC 27853	highest value reported		128 µM
CC[C@H](C)[C@H](NC(=O)[C@H](CC(C)C)NC(=O)[C@H](CCCCN)NC(=O)[C@@H](NC(=O)[C@H](C)NC(=O)[C@H](CCC(=O)O)NC(=O)[C@H](Cc1c[nH]cn1)NC(=O)[C@@H](NC(=O)[C@H](CCCCN)NC(=O)[C@H](CCC(N)=O)NC(=O)[C@H](Cc1ccccc1)NC(=O)[C@@H](NC(=O)[C@H](CCCCN)NC(=O)[C@H](CCCCN)NC(=O)[C@H](CC(C)C)NC(=O)[C@H](C)N)C(C)C)[C@@H](C)CC)[C@@H](C)CC)C(N)=O	CLSI broth microdilution	ATCC 27853	18 h, 37 °C		8 µM
CC1(C)SC2C(NC(=O)C(NC(=O)C3=C(O)C(c4ccccc4)NC3=O)c3ccccc3)C(=O)N2C1C(=O)O (centres unmarked)		fptA mutant			25 µg/mL
CC[C@H](C)[C@H](NC(=O)[C@H](CCCNC(=N)N)NC(=O)[C@H](CCCNC(=N)N)NC(=O)[C@H](CCCNC(=N)N)NC(=O)[C@H](CCCNC(=N)N)NC(=O)[C@H](CCCNC(=N)N)NC(=O)[C@@H](N)CCCNC(=N)N)C(=O)N[C@@H](CO)C(=O)N[C@@H](Cc1ccccc1)C(=O)N[C@@H](CC(C)C)C(=O)NCC(=O)N[C@@H](CO)C(=O)N[C@@H](CCCCN)C(=O)N[C@H](C(=O)N[C@H](C(=O)N[C@H](C(=O)N[C@@H](CC(C)C)C(=O)N[C@@H](CC(C)C)C(=O)N[C@@H](CCCCN)C(=O)N[C@@H](CCCNC(=N)N)C(=O)N[C@@H](CCCNC(=N)N)C(=O)N[C@@H](CCCNC(=N)N)C(=O)N[C@@H](CCCNC(=N)N)C(=O)N[C@@H](CCCNC(=N)N)C(N)=O)C(C)C)C(C)C)C(C)C	broth microdilution	ATCC 27853	highest value reported		8 µM
CC[C@H](C)[C@H](NC(=O)[C@H](CCCNC(=N)N)NC(=O)[C@H](CCCCN)NC(=O)[C@H](Cc1c[nH]c2ccccc12)NC(=O)[C@H](CCC(N)=O)NC(=O)[C@H](Cc1ccccc1)NC(=O)[C@H](Cc1c[nH]c2ccccc12)NC(=O)[C@@H](NC(=O)[C@H](CCCCN)NC(=O)[C@@H](NC(=O)[C@H](CCC(N)=O)NC(=O)[C@@H](N)CCCNC(=N)N)[C@@H](C)CC)[C@@H](C)CC)C(=O)N[C@@H](CCCCN)C(=O)N[C@@H](Cc1c[nH]c2ccccc12)C(=O)N[C@@H](CCCNC(=N)N)C(=O)N[C@@H](CCCNC(=N)N)C(=O)O		ATCC 27853			1.5 µM
CC[C@H](C)[C@H](NC(=O)CNC(=O)[C@H](CC(=O)O)NC(=O)[C@H](CCCNC(=N)N)NC(=O)[C@@H](NC(=O)[C@H](CC(N)=O)NC(=O)[C@H](CCCNC(=N)N)NC(=O)CNC(=O)[C@@H](NC(=O)[C@H](CCC(=O)O)NC(=O)[C@H](CCC(=O)O)NC(=O)[C@@H](NC(=O)[C@H](CCCCN)NC(=O)[C@H](CCCCN)NC(=O)[C@H](Cc1ccccc1)NC(=O)[C@@H](NC(=O)[C@H](CCCCN)NC(=O)[C@H](Cc1c[nH]c2ccccc12)NC(=O)[C@@H](N)CCCNC(=N)N)[C@@H](C)CC)[C@@H](C)CC)C(C)C)C(C)C)C(=O)N[C@H](C(=O)N[C@@H](CCCCN)C(=O)N[C@@H](C)C(=O)NCC(=O)N1CCC[C@H]1C(=O)N[C@@H](C)C(=O)N[C@H](C(=O)N[C@@H](C)C(=O)N[C@H](C(=O)N[C@H](C(=O)NCC(=O)N[C@@H](CCC(N)=O)C(=O)N[C@@H](C)C(=O)N[C@@H](C)C(=O)N[C@H](C(=O)N[C@H](C(=O)N[C@H](C(=O)N[C@@H](CCCCN)C(N)=O)C(C)C)C(C)C)[C@@H](C)O)C(C)C)C(C)C)C(C)C)[C@@H](C)CC		KCCM 11328, Mueller-Hinton broth	16 h, 37 °C	growth inhibition over 99%	32 µM
CC1(C)S[C@@H]2[C@H](NC(=O)[C@H](N)c3ccccc3)C(=O)N2[C@H]1C(=O)O		pvcA mutant			200 µg/mL
CN1C(=O)Cc2ccc(F)c(CCNC[C@H]3CN(c4ccc5c(n4)NC(=O)CO5)C(=O)O3)c21		ATCC 27853			1 µg/mL
CC1(C)SC2C(NC(=O)C(NC(=O)C3=C(O)C(Cc4ccccc4)NC3=O)c3ccccc3)C(=O)N2C1C(=O)O (centres unmarked)		fpvB mutant			12.5 µg/mL
NC[C@H]1O[C@H](O[C@H]2[C@H](O)[C@@H](O[C@H]3O[C@H](CO)[C@@H](O)[C@H](N)[C@H]3O)[C@H](N)C[C@@H]2N)[C@H](N)C[C@@H]1O		expressing H6-MBP-CSP2 or R169A mutant	24 h, with: IPTG 1 mM		2 µg/mL
CC[C@H](C)[C@H](N)C(=O)N[C@@H](CC(C)C)C(=O)NCC(=O)N[C@H](CCCNC(=N)N)C(=O)N[C@H](C(=O)N[C@H](C(=O)N[C@@H](CCCCN)C(=O)NCC(=O)N[C@H](C(=O)N[C@@H](CCCCN)C(=O)N[C@@H](CC(=O)O)C(=O)N[C@H](C(=O)N[C@@H](CC(C)C)C(N)=O)[C@@H](C)CC)[C@@H](C)CC)C(C)C)[C@@H](C)CC	broth microdilution	ATCC BAA-427, Mueller-Hinton broth	16 h, 37 °C		100 µM
CC1(C)SC2C(NC(=O)C(NC(=O)C3=C(O)CN(c4ccccc4)C3=O)c3ccccc3)C(=O)N2C1C(=O)O (centres unmarked)	broth microdilution	TonB-dependent receptor mutant	PA two-allele library		50 µg/mL
C[C@H]1COc2c(N3CCN(C)CC3)c(F)cc3c(=O)c(C(=O)O)cn1c23		1191191, multidrug-resistant			2 µg/mL
CC1(C)S[C@@H]2[C@H](NC(=O)C(C(=O)O)c3ccccc3)C(=O)N2[C@H]1C(=O)O (some centres unmarked)		pvdA mutant			12.5 µg/mL
N=C(N)NCCC[C@H](NC(=O)[C@H](Cc1c[nH]c2ccccc12)NC(=O)[C@@H](N)CCCNC(=N)N)C(=O)N[C@@H](Cc1c[nH]c2ccccc12)C(=O)N[C@@H](CCC(N)=O)C(=O)N[C@@H](Cc1ccccc1)C(=O)N[C@@H](CCC(N)=O)C(=O)N[C@@H](Cc1ccccc1)C(=O)N[C@@H](CCCCN)C(N)=O	broth microdilution, optical density				39 µM
CC1(C)SC2C(NC(=O)C(NC(=O)C3=C(O)C(Cc4ccc([N+](=O)[O-])cc4)NC3=O)c3ccccc3)C(=O)N2C1C(=O)O (centres unmarked)	broth microdilution	TonB-dependent receptor mutant	PA two-allele library		25 µg/mL
CC[C@H](C)[C@H](NC(=O)CNC(=O)[C@H](CC(=O)O)NC(=O)[C@H](CCC(=O)O)NC(=O)[C@@H](NC(=O)[C@H](CC(N)=O)NC(=O)[C@H](CCCNC(=N)N)NC(=O)CNC(=O)[C@@H](NC(=O)[C@H](CCCCN)NC(=O)[C@H](CCC(=O)O)NC(=O)[C@@H](NC(=O)[C@H](CCCCN)NC(=O)[C@H](CCCCN)NC(=O)[C@H](Cc1ccccc1)NC(=O)[C@@H](NC(=O)[C@H](CCCCN)NC(=O)[C@H](Cc1c[nH]c2ccccc12)NC(=O)[C@@H](N)CCCNC(=N)N)[C@@H](C)CC)[C@@H](C)CC)C(C)C)C(C)C)C(=O)N[C@H](C(=O)N[C@@H](CCCCN)C(=O)N[C@@H](C)C(=O)NCC(=O)N1CCC[C@H]1C(=O)N[C@@H](C)C(=O)N[C@H](C(=O)N[C@@H](C)C(=O)N[C@H](C(=O)N[C@H](C(=O)NCC(=O)N[C@@H](CCC(N)=O)C(=O)N[C@@H](C)C(=O)N[C@@H](C)C(=O)N[C@H](C(=O)N[C@H](C(=O)N[C@H](C(=O)N[C@@H](CCCCN)C(N)=O)C(C)C)C(C)C)[C@@H](C)O)C(C)C)C(C)C)C(C)C)[C@@H](C)CC		KCCM 11328, Mueller-Hinton broth	16 h, 37 °C	growth inhibition over 99%	32 µM

Repeated from above:
SMILES	test	system	setting	scale	MIC
CC1(C)SC2C(NC(=O)C(NC(=O)C3=C(O)C(c4ccccc4)NC3=O)c3ccccc3)C(=O)N2C1C(=O)O (centres unmarked)		fptA mutant			25 µg/mL
N=C(N)NCCC[C@H](NC(=O)[C@H](Cc1c[nH]c2ccccc12)NC(=O)[C@@H](N)CCCNC(=N)N)C(=O)N[C@@H](Cc1c[nH]c2ccccc12)C(=O)N[C@@H](CCC(N)=O)C(=O)N[C@@H](Cc1ccccc1)C(=O)N[C@@H](CCC(N)=O)C(=O)N[C@@H](Cc1ccccc1)C(=O)N[C@@H](CCCCN)C(N)=O	broth microdilution, optical density				39 µM
